Published values from different studies.
Parts stem from different laboratories: compare values within a part only. Substitutions count along the parent as printed.

Block 1
Target: CCNB3, cyclin fold, Cln2 fusion (human)
Method: yeast growth competition, sequencing
Matrix: yeast
Notes: weak parent motif
Baseline: not given
Reading: higher = stronger binding
Endpoint: normalised enrichment score
Parent: PKN2 docking peptide (human); VSAVQKLDFSDTM; partner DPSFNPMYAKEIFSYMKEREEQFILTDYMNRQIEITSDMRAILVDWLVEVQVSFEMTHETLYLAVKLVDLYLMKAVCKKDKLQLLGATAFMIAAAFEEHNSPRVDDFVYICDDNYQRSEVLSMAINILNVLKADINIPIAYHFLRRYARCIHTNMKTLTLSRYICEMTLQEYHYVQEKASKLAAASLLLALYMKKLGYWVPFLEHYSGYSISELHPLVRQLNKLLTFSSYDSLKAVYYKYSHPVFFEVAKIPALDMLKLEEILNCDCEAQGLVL
VSAVQKLDFSDTT [M13T]: 0.242
VSAVQKLDASDTM [F9A]: 0.164
VSAVQKLDFDDTM [S10D]: 0.376
VSAVQKLDFSETM [D11E]: 0.356
VSAVQKLDISDTM [F9I]: 0.19
VSAVQKLDFVDTM [S10V]: 0.521
VSAVQKLQFSDTM [D8Q]: 0.267
VSAQQKLDFSDTM [V4Q]: -0.0264
VSAVQKLDESDTM [F9E]: 0.244

Block 2
Target: Interferon regulatory factor 7, full length, phosphomimetic (IRF7, Homo sapiens, UniProt Q92985, residues 1-503, S471D/S472D/S475D/S476D/S477D/S483D/S484D/S487D)
Chain of UniProt Q92985 (whole entry, unmodified, looked up): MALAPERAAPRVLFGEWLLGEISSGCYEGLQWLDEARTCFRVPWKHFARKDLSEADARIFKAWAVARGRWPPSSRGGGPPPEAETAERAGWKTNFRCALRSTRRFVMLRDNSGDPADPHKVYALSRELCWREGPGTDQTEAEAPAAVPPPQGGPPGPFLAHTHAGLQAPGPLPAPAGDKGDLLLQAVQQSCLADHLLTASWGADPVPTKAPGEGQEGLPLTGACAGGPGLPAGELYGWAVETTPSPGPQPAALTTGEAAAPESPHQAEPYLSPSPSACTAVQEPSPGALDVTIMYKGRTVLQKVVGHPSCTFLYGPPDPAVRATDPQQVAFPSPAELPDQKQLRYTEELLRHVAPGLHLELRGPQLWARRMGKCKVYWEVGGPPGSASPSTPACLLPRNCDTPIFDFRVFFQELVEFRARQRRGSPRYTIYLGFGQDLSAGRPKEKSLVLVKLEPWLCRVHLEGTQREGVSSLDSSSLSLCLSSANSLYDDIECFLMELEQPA
Method: protein-binding microarray
Molecule type: double-stranded DNA, one strand shown
Matrix: in vitro
Tested at: 2200 nM top
Notes: 60-bp whole probe
Added: salmon DNA 0.4 mg/ml
Baseline: random background probes
Reading: higher = stronger binding
Endpoint: fitted relative affinity
Constant ends, left off below: GCCTAGCAC … GTCTTGATTCGCTTGACGCTGCTG
CACGGACTGGACTTTCGGGACGTGCTA: 1.93 z-score
TTATGTTTCGGGTATCGGTTAGTGCTA: 5.72 z-score
TTAGGTCTCGATCTCGGTTAGTGCTAG: 0.508 z-score
GACGGATTCGGGACTGGGGACGTGCTA: 0.383 z-score
TTAGGTTTCCTTCTCGTTTAGTGCTAG: 2.23 z-score
TTAGGTTTCCTACTGCTTGAGTGCTAG: 1.03 z-score
GACAATTTGGAAACCGAGTGGTGCTAG: -0.105 z-score
GTCGGTATCCTTTTCCTGACGTGCTAG: 2.13 z-score
GCCGGTTTCCTACTGCTGACGTGCTAG: 2.56 z-score
TTAGGACTGCTTCTCCTTCAGTGCTAG: 0.626 z-score

Block 3
Target: Ras GTPase-activating protein-binding protein 1, C-terminal RGG region (G3BP1, Homo sapiens, UniProt Q13283)
Chain of UniProt Q13283 (whole entry, looked up): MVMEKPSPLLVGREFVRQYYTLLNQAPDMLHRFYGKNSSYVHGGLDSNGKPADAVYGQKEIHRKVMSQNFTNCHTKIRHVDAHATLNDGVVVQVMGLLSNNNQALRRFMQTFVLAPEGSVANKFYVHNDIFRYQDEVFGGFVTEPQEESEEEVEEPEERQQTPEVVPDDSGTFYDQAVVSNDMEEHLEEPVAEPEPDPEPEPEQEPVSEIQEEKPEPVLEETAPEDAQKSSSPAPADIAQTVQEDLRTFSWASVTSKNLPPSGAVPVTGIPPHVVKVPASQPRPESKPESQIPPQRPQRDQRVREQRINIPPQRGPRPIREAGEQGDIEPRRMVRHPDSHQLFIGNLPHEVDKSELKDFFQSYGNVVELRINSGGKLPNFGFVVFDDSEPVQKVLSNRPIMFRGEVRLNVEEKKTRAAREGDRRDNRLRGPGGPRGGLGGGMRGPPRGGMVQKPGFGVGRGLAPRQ
Method: RNA Bind-n-Seq
Molecule type: RNA
Matrix: in vitro
Tested at: 1 µM
Notes: whole 134-nt RNA, ends assumed
Added: 150 mM KCl
Baseline: input library
Reading: higher = stronger binding
Endpoint: log2 enrichment
Constant ends, left off below: GGGAGUUCUACAGUCCGACGAUC … UGGAAUUCUCGGGUGUCAAGG
CAAGUCCUGUGCUACACAUCGUAUGUACCGAAUCGGGGAAAAGGAAAAGGAAAAGGAAAGUAUUAUGUUACGCCGUUCGGAUCUGCACUU: -2.01
UUCCCCACUUCCUUCCCUCCAGUCCCCACUCACUCACAUGCACACACUAACCUUGGAGCCGAUGGGAUUGAGUGACUGGCACUUGGGACC: 1.09
UGUCCCUGGUGGCAUGCGGGGAGGAAGAGGUGGCCUCAUGGAUCGUGGUGGUCCCGGUGGAAUGUUCAGAGGUGGCCGUGGUGGAGACAG: 2.34
ACCAUGCAGGUGGGCAUCUUUGGGAAGUGGGGCAAGGGGCGGAUAGGGAGGGGGGUAACACUUUGGGAACAGGUGGUCCCAGGUCGUUUC: 2.18
CUCAAGUCCUGUGCUACACAUCGUAUGUACCGAAUCGGUGGUUUUUGGAAAGGAAAGUAUUAUGUUACGCCGUUCGGAUCUGCACUUCCA: -0.967
UCCUCAAGUCCUGUGCUACACAUCGUAUGUACCGAAUCGGUGGGGUGGGUGGAAAGUAUUAUGUUACGCCGUUCGGAUCUGCACUUCCAG: 0.199
UCAAGUCCUGUGCUACACAUCGUAUGUACCGAAUCGGAAAGGGAAAGGAAAGGGAAAGUAUUAUGUUACGCCGUUCGGAUCUGCACUUCC: -1.41
ACCAUGCAGGUGGGCAUCUUUGGGAAGUGGGGCAAGGGGGGGAUAGGGAGGGGGGUAACACUUAGGGAACAGGUGGUCCCAGGUCGUUUC: 2.35
ACUUUGUCAGAUAUUGCUAGGGACCAGUGAGAUAGAUAAUCCAAAAAUAAUAAUUUGACUUUGGUUGAGUAUGUCAUUACCACAGUGUUA: -2.3
UCAAGUCCUGUGCUACACAUCGUAUGUACCGAAUCGGGGAGGGGUGGGGUGGGGAAAGUAUUAUGUUACGCCGUUCGGAUCUGCACUUCC: 3.3
AAGUCCUGUGCUACACAUCGUAUGUACCGAAUCGGGUUUUUUUGGGUGGGUUUGGGAAAGUAUUAUGUUACGCCGUUCGGAUCUGCACUU: 0.932

Mixed results
PhoQ, residues 284 288 289 292 302 303 QWQEDG — fold induction (PhoP, residues 12 14 15 18 19 NQAHL (Escherichia coli, UniProt P23836); Sort-seq, measured: YFP reporter; E. coli; PhoQ-PhoP variant library, added: 10 µM Mg2+; baseline: high Mg2+ state, higher = stronger signaling): 1.58

Excerpt of the above (block 2):
GACGGATTCGGGACTGGGGACGTGCTA: 0.383 z-score
CACGGACTGGACTTTCGGGACGTGCTA: 1.93 z-score
TTATGTTTCGGGTATCGGTTAGTGCTA: 5.72 z-score
TTAGGTCTCGATCTCGGTTAGTGCTAG: 0.508 z-score
GCCGGTTTCCTACTGCTGACGTGCTAG: 2.56 z-score
